Published values pooled from the literature.
Parts stem from different laboratories: compare values within a part only.
Sequence of UniProt Q13882 (whole entry, looked up): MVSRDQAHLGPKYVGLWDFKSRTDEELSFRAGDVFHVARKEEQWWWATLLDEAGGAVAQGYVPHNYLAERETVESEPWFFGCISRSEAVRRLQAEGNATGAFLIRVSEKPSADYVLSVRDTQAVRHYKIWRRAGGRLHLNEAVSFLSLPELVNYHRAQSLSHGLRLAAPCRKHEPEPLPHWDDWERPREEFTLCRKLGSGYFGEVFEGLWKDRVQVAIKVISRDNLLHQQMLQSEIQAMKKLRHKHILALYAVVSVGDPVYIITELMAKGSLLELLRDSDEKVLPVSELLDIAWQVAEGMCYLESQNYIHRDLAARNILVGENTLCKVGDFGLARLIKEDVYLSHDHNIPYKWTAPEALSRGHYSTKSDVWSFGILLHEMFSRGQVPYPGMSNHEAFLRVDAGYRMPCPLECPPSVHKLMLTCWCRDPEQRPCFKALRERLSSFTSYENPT
Sequence of UniProt Q99755 (whole entry, looked up): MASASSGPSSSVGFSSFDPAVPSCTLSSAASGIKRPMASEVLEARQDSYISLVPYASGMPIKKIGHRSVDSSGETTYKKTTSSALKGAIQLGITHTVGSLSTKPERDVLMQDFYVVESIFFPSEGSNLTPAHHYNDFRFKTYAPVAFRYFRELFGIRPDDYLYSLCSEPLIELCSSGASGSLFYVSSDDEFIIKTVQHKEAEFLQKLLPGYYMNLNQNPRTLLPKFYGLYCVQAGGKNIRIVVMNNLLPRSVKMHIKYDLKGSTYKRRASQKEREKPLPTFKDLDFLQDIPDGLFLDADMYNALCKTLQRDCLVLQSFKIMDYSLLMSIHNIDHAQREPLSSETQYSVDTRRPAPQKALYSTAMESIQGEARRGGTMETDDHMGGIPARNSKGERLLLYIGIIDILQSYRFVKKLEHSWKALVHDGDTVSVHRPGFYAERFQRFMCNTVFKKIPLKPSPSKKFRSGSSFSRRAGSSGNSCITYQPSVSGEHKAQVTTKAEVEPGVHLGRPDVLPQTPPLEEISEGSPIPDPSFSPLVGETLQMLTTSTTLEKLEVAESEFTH
Sequence of UniProt Q9Y6M4 (whole entry, looked up): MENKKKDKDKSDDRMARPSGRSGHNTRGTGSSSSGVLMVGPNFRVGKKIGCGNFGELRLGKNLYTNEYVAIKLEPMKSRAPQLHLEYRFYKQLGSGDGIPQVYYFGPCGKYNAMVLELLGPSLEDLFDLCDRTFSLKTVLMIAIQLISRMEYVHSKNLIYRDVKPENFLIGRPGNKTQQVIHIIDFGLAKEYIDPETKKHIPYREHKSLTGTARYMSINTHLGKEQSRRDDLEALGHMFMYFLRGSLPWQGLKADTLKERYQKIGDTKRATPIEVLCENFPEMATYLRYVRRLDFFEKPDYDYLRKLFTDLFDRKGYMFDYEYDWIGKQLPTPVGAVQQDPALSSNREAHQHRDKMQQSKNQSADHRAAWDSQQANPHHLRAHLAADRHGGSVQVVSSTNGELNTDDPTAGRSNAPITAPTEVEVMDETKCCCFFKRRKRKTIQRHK
Sequence of UniProt O94768 (whole entry, looked up): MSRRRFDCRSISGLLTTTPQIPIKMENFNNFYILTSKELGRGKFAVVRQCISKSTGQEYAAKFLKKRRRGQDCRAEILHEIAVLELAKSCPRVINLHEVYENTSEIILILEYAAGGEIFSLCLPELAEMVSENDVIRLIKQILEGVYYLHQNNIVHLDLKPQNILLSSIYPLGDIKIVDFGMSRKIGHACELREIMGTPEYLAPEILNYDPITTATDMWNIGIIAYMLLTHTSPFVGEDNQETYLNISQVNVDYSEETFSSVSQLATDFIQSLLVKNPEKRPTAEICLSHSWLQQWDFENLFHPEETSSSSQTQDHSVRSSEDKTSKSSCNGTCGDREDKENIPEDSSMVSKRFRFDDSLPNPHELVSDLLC
Sequence of UniProt O00141 (whole entry, looked up): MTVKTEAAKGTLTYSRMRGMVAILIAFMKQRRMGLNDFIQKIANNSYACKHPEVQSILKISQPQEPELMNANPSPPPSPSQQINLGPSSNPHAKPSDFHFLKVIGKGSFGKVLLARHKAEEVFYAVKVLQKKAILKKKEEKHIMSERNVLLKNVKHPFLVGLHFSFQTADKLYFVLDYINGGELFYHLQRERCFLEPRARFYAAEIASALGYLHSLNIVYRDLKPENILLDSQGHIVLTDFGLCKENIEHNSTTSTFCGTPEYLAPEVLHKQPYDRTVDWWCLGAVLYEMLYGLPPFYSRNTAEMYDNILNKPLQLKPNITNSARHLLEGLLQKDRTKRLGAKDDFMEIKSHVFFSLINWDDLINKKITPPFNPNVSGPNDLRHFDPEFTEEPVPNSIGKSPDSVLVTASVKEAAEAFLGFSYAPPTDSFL
Sequence of UniProt Q9UBE8 (whole entry, looked up): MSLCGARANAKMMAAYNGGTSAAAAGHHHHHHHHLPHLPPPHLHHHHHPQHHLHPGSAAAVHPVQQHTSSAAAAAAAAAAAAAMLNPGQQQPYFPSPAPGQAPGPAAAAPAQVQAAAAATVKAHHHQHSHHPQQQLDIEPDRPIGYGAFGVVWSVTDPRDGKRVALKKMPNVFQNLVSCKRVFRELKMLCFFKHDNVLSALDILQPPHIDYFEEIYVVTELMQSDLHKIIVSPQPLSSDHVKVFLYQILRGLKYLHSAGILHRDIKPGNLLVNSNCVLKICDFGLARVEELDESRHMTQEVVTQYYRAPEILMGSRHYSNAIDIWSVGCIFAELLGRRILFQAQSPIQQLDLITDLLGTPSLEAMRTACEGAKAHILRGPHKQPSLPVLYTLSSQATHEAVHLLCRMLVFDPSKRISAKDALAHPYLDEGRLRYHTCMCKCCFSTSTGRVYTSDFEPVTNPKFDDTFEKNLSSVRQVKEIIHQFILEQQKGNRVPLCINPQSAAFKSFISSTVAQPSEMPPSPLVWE
Sequence of UniProt O95835 (whole entry, looked up): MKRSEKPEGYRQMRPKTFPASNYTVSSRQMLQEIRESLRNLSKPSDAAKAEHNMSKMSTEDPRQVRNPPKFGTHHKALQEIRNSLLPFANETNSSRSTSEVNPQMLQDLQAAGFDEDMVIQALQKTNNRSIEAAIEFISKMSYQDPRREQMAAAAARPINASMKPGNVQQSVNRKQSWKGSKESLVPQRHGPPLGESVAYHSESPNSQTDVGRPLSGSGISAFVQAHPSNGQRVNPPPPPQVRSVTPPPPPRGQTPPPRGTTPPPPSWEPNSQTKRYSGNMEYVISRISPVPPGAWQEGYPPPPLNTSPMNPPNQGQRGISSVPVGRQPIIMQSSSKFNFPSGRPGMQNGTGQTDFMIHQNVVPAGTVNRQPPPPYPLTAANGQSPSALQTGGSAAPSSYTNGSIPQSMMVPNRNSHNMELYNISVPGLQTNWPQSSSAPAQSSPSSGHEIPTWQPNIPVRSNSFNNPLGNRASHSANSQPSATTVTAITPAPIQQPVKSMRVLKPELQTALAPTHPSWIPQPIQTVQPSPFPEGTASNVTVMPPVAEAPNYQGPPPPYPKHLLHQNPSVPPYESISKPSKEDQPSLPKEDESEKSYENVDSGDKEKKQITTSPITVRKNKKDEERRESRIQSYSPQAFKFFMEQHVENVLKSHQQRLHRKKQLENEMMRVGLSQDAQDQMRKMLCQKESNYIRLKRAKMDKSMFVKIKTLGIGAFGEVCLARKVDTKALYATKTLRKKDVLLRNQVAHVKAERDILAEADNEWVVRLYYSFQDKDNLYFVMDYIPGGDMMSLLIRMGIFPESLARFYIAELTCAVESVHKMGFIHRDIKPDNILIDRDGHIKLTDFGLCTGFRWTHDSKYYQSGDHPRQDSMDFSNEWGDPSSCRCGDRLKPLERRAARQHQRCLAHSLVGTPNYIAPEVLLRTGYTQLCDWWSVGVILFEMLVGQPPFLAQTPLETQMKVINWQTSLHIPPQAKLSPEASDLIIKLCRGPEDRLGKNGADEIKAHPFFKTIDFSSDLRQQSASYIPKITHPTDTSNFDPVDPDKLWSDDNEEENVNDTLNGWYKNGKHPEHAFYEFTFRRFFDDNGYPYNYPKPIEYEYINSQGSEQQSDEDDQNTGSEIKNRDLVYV
Sequence of UniProt P54756 (whole entry, looked up): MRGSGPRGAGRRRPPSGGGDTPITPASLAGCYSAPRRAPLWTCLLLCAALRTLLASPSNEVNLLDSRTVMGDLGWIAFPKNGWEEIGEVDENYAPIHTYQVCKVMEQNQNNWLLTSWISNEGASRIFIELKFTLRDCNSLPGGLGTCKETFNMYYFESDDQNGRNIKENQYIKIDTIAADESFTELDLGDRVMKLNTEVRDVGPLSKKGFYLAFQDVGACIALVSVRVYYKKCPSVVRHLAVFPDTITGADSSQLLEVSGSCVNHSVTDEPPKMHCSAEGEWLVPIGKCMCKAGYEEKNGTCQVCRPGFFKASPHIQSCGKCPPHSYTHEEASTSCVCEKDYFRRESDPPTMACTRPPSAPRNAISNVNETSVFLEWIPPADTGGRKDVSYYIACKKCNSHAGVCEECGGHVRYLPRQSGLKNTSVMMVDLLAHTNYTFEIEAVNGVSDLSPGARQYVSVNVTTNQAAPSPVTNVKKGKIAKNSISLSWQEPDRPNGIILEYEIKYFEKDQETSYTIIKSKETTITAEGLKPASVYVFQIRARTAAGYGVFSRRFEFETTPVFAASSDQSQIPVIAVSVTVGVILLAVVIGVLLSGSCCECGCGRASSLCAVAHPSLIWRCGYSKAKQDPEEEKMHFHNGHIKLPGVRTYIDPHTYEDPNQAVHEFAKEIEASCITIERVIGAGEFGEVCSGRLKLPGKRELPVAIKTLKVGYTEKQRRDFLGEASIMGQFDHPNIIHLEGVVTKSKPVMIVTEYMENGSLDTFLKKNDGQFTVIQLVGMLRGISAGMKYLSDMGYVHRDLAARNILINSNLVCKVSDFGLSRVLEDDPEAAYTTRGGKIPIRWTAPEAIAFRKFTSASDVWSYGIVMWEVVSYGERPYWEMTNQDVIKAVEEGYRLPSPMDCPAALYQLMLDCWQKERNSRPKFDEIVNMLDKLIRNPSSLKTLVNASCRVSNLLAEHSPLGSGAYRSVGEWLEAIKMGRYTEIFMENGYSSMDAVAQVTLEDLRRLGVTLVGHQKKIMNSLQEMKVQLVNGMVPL

Block 1
Target: HLA class I histocompatibility antigen, C alpha chain, allele C*04:01 (Homo sapiens, UniProt P10321)
Effect on: peptide-MHC binding
Molecule type: peptide
Tested at: concentration not given
`LQPSDTLLF` — result for binding: “inactive”.
For `SVQWFRLPR`, binding read “inactive”.
`YMRERFEPM`: binding “inactive”.
Under binding, `SLMASSPTSI` is recorded as “inactive”.
`WEMRAGREI`: binding “inactive”.
Under binding, `FLNPVIYTF` is recorded as “inactive”.
`RQNAPFEPI` — result for binding: “inactive”.
For `TEMYIMYAM`, binding read “inactive”.
For `ALRQARAAF`, binding read “inactive”.
For `TTFDLTLRR`, binding read “inactive”.
`MALATGLWW` — result for binding: “inactive”.
`STFDLYVYR` — result for binding: “inactive”.
`FTFDLTALK`: binding “inactive”.
`VPIAWAAA` — result for binding: “inactive”.
For `RIYKRSLKL`, binding read “inactive”.
`RVYAHVRSV`: binding “inactive”.
Under binding, `FYPPVLQPI` is recorded as “inactive”.
Under binding, `STEFIPNLF` is recorded as “inactive”.
`RTLNLFRYK`: binding “inactive”.
`SEFWLNYTA` — result for binding: “inactive”.
`MMAKSNSPF`: binding “inactive”.

Block 2
Cell line: mouse MPNST tumor cells
Technique: high-content immunofluorescence imaging
Item: nuclear SOX9
Tested at: 10 µM
Time: 12 h
Setting: mean of 2 replicates
Relative to: DMSO control
Direction: higher = more nuclear SOX9
For O=C(O)c1ccccc1Nc1ccc(CCc2ccc(Cl)c(Cl)c2)cc1, “nuclear SOX9 intensity” read 102 % of DMSO.
For O=C(O)C[C@H]1CC[C@H](c2ccc(NC(=O)c3nnc(Nc4ccc(F)c(F)c4)o3)cc2)CC1, “nuclear SOX9 intensity” read 99.3 % of DMSO.
For N#Cc1ccc(-c2csc(NN=C3CCCC3)n2)cc1, “nuclear SOX9 intensity” read 117 % of DMSO.
CC(COc1ccccc1)NC(C)C(O)c1ccc(O)cc1 (centres unmarked): “nuclear SOX9 intensity” 124 % of DMSO.
CCC(=O)O[C@]1(C(=O)CCl)[C@@H](C)C[C@H]2[C@@H]3CCC4=CC(=O)C=C[C@]4(C)[C@@]3(F)[C@@H](O)C[C@@]21C: “nuclear SOX9 intensity” 75.9 % of DMSO.
For CC(=O)O[C@]1(C(C)=O)CC[C@H]2[C@@H]3C=C(Cl)C4=CC(=O)CC[C@]4(C)[C@H]3CC[C@@]21C, “nuclear SOX9 intensity” read 96.2 % of DMSO.
CCCCC#Cc1nc(NC)c2ncn(C3OC(CO)C(O)C3O)c2n1 (centres unmarked): “nuclear SOX9 intensity” 103 % of DMSO.
CCC(c1ccccc1)c1c(O)c2ccccc2oc1=O (centres unmarked) — result for “nuclear SOX9 intensity”: 89 % of DMSO.

Block 3
SMILES: Cn1cncc1[C@](O)(COc1ccc(C#N)cc1-c1ccc(OC(F)(F)F)cc1)c1ccc(C#N)cc1
Effect on: cell-free assay
Technique: competition with immobilised ligand
Tested at: 1 µM
Phosphatidylinositol 4-phosphate 5-kinase type-1 alpha (PIP5K1A, Homo sapiens, UniProt Q99755) — remaining binding: 91%.
Serine/threonine-protein kinase 17B (STK17B, Homo sapiens, UniProt O94768) — remaining binding: 64%.
The remaining binding was 96% (Serine/threonine-protein kinase pim-1 (PIM1, Homo sapiens, UniProt P11309)).
Serine/threonine-protein kinase Sgk1 (SGK1, Homo sapiens, UniProt O00141) — remaining binding: 76%.
It gave 100% for remaining binding (Tyrosine-protein kinase ABL1, non-phosphorylated (ABL1, Homo sapiens, UniProt P00519)).
For Non-receptor tyrosine-protein kinase TNK1 (TNK1, Homo sapiens, UniProt Q13470): remaining binding read 56%.
The remaining binding was 71% (Casein kinase I isoform gamma-3 (CSNK1G3, Homo sapiens, UniProt Q9Y6M4)).
Protein-tyrosine kinase 6 (PTK6, Homo sapiens, UniProt Q13882) — remaining binding: 100%.
It gave 100% for remaining binding (Serine/threonine-protein kinase PRP4 homolog (PRPF4B, Homo sapiens, UniProt Q13523)).
It gave 100% for remaining binding (Homeodomain-interacting protein kinase 2 (HIPK2, Homo sapiens, UniProt Q9H2X6)).
For Ephrin type-A receptor 5 (EPHA5, Homo sapiens, UniProt P54756): remaining binding read 97%.
It gave 89% for remaining binding (Serine/threonine-protein kinase NLK (NLK, Homo sapiens, UniProt Q9UBE8)).
The remaining binding was 87% (Serine/threonine-protein kinase LATS1 (LATS1, Homo sapiens, UniProt O95835)).

Block 4
Structure (SMILES): COc1ccc(-c2c(Nc3ccccn3)[nH]c3c(C4=CCCCC4)c(-c4ccccc4)nn3c2=O)cc1
Species: human
Medium: plasma
Route: oral
The Tmax was 3 h (LC-MS/MS non-compartmental; 200 mg, day -3 of cycle 0, single dose, median).
It gave 6 h for Tmax (50 mg once daily).
100 mg once daily — Tmax: 24 h.
For 400 mg once daily: Tmax read 24 h.
The Tmax was 0 h (LC-MS/MS non-compartmental; 200 mg twice daily, cycle 1).
